{"data": "Experimental data of several laboratories", "note": "Each numbered part is a random draw from the data of one study; scales do not carry over between parts. Substitutions count along the parent as printed."}
{"data": "Set 1", "target": "Histone acetyltransferase KAT6A, both winged helices, GST fusion (KAT6A, Homo sapiens, UniProt Q92794, residues 1-181)", "technique": "protein binding microarray", "form": "double-stranded DNA, one strand shown", "sample": "in vitro", "tested at": "not given", "setting": "8-mer, flanks averaged, mean of 2 arrays, mostly near background", "relative to": "not given", "direction": "higher = stronger binding", "Residues (chain)": "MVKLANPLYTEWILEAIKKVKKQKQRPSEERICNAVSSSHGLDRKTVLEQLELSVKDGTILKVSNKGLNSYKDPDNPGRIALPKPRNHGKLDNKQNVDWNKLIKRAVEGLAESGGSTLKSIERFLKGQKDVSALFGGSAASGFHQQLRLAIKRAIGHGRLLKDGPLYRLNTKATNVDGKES"}
{"Sequence": "AGTACGGC", "E-score": 0.303}
{"Sequence": "CGTCATTC", "E-score": 0.106}
{"Sequence": "AATCATCG", "E-score": 0.0846}
{"Sequence": "CATCTTTC", "E-score": -0.307}
{"Sequence": "GGTACCAA", "E-score": -0.0938}
{"Sequence": "TGCGTCCA", "E-score": 0.191}
{"Sequence": "CTCCGTTC", "E-score": 0.156}
{"Sequence": "TAGGCCTA", "E-score": -0.0973}
{"data": "Set 2", "target": "CCND3, cyclin fold, Cln2 fusion (human)", "technique": "yeast growth competition, sequencing", "sample": "yeast", "setting": "weak parent motif", "relative to": "not given", "direction": "higher = stronger binding", "starting sequence": "BRCA2 docking peptide (human); PSIKRNLLNEFDR"}
{"Substitution": "KSIKRNLLNEFDR [P1K]", "normalised enrichment score": 0.127}
{"Substitution": "PSIKRGLLNEFDR [N6G]", "normalised enrichment score": -0.038}
{"Substitution": "PSIKRNLLNEFER [D12E]", "normalised enrichment score": 0.198}
{"Substitution": "PSIKRNLLNEFMR [D12M]", "normalised enrichment score": 0.176}
{"Substitution": "PSIKRNLLNEFDI [R13I]", "normalised enrichment score": 0.324}
{"Substitution": "PSTKRNLLNEFDR [I3T]", "normalised enrichment score": -0.0104}
{"Substitution": "PSIKRFLLNEFDR [N6F]", "normalised enrichment score": 0.211}
{"data": "Set 3", "target": "RNA binding protein fox-1 homolog 2, RRM domain, GST-SBP tag (RBFOX2, Homo sapiens, UniProt O43251-10, residues 100-194)", "technique": "RNA Bind-n-Seq", "form": "RNA", "sample": "in vitro", "tested at": "365 nM", "setting": "natural RNA segment, single round, ends assumed", "relative to": "no-protein control", "direction": "higher = stronger binding", "constant ends, left off below": "GGGAGUUCUACAGUCCGACGAUC … UGGAAUUCUCGGGUGCCAA"}
{"Sequence": "AUCCCGACACAGCUCUGUGCCUUCAGCCCCAGGUCCACAGCGGGGACACUCGAGCCUCUGCUCUCACCUUGCCCUGUUUGGGUUUUUAUCAGCCGUGUCUGCAUUGGAGC", "RBNS enrichment (R)": 0.406}
{"Sequence": "AGGAGAGGACUGGGCCUGAUGGAAGUUAACCCGGAGCUAAGUCACCCAGAGCACAGGAGCUGCCAUGUCAGAUGGGAAAUCUGCCUAUGUCAUACCGUGACAGCCCGCAG", "RBNS enrichment (R)": 1.17}
{"Sequence": "AAGGACAUCCGCUUGACUCCCCACUCACCAUCAGGCCACACUUUUAAAGAAAAAUUGUUCUCUAACCAGGAUUGUAACAAAUGUGUAAAUAGUAUUUCUGAGUUGAAAGU", "RBNS enrichment (R)": 0.707}
{"Sequence": "GCACCCGCGGGGGCCUGGGAGUCCCCAUUUGCAGGUGGGUAGGGCCUCCAGCCCACACCACCCAGACCUAGGCUUCCCUCUUCUCAGGAUCCACCACAGGGUUAGGGGAC", "RBNS enrichment (R)": 0.478}
{"Sequence": "UUGAGCACCUUACAGAUAAAACUUUUUAUGGCAUCUCUUUCAUGGACAGUGAUAUUGAUCUUUUCACAAUGUACGUAGCCUCUAGAAUUUUGUACAUAUGUUUGCUCUUU", "RBNS enrichment (R)": 0.634}
{"data": "Single results of other studies"}
{"Molecule": "PhoQ, residues 284 288 289 292 302 303 ALASRC", "target": "PhoP, residues 12 14 15 18 19 TTLRV (Escherichia coli, UniProt P23836)", "test": "Sort-seq, measured: YFP reporter", "system": "E. coli", "setting": "PhoQ-PhoP variant library, together with: 10 µM Mg2+", "scale": "relative to: high Mg2+ state, higher = stronger signaling", "endpoint": "fold induction", "result": 4.49}
{"note": "Excerpt of the above (set 1):"}
{"Sequence": "GGTACCAA", "E-score": -0.0938}
{"Sequence": "CTCCGTTC", "E-score": 0.156}
{"Sequence": "TAGGCCTA", "E-score": -0.0973}
